Published values of several laboratories.
Numbers after ± are the reported error.

SMILES	assay	system	conditions	measurement	result
CN([O-])C(=O)CN1CCNCCN(CC(=O)N(C)[O-])CC1.[89Zr+4]	radio-TLC	human serum	7 days, run 1	intact complex	100%
C[N+](C)(CCOCCOCCOCCNC(=S)Nc1ccc(C[C@H]2CN(CC(=O)[O-])CCN(CC(=O)[O-])CCN2CC(=O)[O-])cc1)C[c-]1cccc1.[64Cu+2].[Fe+2].c1cc[cH-]c1	radio-HPLC	human plasma	240 min, 37 °C	intact compound	76.8 ± 0.5%
CN([O-])C(=O)CN1CCN(CC(=O)N(C)[O-])CCN(Cc2ccccn2)CC1.[89Zr+4]	radio-TLC	human serum	3 days, run 3	intact complex	91.6%
CN(O)C(=O)CCC(=O)NCCCN(CCCCN(CCCNC(=O)CCC(=O)N(C)O)C(=O)CCC(=O)N(C)O)C(=O)CCC(=O)N(C)O.[89Zr]	radio-TLC	aqueous buffer	3 d, pH 7.2, 37 °C, 89Zr-labelled complex, together with: NiCl2 10-fold excess	intact complex	96.8 ± 2.8%
Cc1ccc(C(C)C)cc1.O=C(N=P12CN3CN(CN(C3)C1)C2)c1[c-]cccc1.[Cl-].[Ru+2]		DMSO-d6	1 week	intact compound	50%
O=C([O-])CN1CCN(CC(=O)[O-])CCN(CC(CCCc2ccccc2[N+](=O)[O-])N(CC(=O)[O-])CC(=O)[O-])CC1.[90Y+3] (stereo not drawn)	TLC	human serum	183 h, pH 7, 37 °C	intact radiolabelled complex	99.5 ± 0.4%
C[N+](C)(CCOCCOCCOCCOCCOCCOCCOCCNC(=S)Nc1ccc(CC2CN(CC(=O)[O-])CCN(CC(=O)[O-])CCN2CC(=O)[O-])cc1)C[c-]1cccc1.[64Cu+2].[Fe+2].c1cc[cH-]c1 (stereo not drawn)	radio-HPLC	PBS	240 min, pH 7.4	intact compound	80.4 ± 3%
CC(=O)N([O-])CCCCCNC(=O)CCC(=O)N([O-])CCCCCNC(=O)CCC(=O)N([O-])CCCCCN.[89Zr+4]	radio-TLC	aqueous buffer	1 d, pH 7.2, 37 °C, 89Zr-labelled complex, together with: CaCl2 10-fold excess	intact complex	98.3 ± 0.9%
COc1ccc2c(c1)C(C)(C)C(/C=C/C1=C(Oc3ccc(C(=O)NCCCCOc4cc(CN(Cc5ccccn5)Cc5ccccn5)cc(CN(Cc5ccccn5)Cc5ccccn5)c4)cc3)C(=C/C=C3/N(CCCCS(=O)(=O)[O-])c4ccc(OC)cc4C3(C)C)CCC1)=[N+]2CCCCS(=O)(=O)[O-].O=[N+]([O-])[O-].O=[N+]([O-])[O-].[99Tc+].[C-]#[O+].[C-]#[O+].[C-]#[O+].[Zn+2]	radio-TLC	mouse serum	18 h, 37 °C	intact compound	97.1%

Excerpt of the above:
SMILES	assay	system	conditions	measurement	result
Cc1ccc(C(C)C)cc1.O=C(N=P12CN3CN(CN(C3)C1)C2)c1[c-]cccc1.[Cl-].[Ru+2]		DMSO-d6	1 week	intact compound	50%
